Assay results pooled from the literature.
Compare with care: the assays were run in different laboratories. “And” joins repeats or separate records; there may be more than shown. ± marks the error that the study gave.
PFF0160c E182D: Dihydroorotate dehydrogenase (quinone), mitochondrial (PFF0160c, Plasmodium falciparum, UniProt Q08210, E182D)
Neuronal acetylcholine receptor; alpha9/alpha10: Neuronal acetylcholine receptor; alpha9/alpha10 (Homo sapiens, UniProt Q9GZZ6+Q9UGM1)
Sequence of UniProt Q9GZZ6 (whole entry, looked up): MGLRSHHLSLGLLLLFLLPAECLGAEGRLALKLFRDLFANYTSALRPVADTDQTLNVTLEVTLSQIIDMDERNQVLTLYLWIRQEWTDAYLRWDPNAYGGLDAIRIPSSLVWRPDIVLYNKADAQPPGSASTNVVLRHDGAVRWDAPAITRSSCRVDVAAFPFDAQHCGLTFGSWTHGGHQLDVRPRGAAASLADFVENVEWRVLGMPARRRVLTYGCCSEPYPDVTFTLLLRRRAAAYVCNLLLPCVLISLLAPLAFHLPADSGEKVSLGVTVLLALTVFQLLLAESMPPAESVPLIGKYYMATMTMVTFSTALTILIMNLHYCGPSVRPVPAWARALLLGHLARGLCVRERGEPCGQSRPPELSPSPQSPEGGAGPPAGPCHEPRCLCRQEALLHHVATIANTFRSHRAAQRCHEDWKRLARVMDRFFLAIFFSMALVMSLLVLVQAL
Sequence of UniProt Q9UGM1 (whole entry, looked up): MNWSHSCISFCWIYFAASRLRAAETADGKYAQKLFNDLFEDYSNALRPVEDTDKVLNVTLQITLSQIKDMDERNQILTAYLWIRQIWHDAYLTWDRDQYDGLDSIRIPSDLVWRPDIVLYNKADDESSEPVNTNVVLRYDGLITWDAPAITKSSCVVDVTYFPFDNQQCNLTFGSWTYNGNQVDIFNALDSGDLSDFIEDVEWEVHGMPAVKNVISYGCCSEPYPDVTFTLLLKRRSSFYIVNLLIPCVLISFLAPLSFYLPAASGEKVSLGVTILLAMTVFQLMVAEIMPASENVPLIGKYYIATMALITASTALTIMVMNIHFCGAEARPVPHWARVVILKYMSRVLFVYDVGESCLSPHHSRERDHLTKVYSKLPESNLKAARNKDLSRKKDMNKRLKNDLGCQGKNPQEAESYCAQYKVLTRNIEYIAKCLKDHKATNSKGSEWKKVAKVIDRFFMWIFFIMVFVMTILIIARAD
ACHE: Acetylcholinesterase (ACHE, Homo sapiens, UniProt P22303)
Sequence of UniProt A5GZW8 (whole entry, looked up): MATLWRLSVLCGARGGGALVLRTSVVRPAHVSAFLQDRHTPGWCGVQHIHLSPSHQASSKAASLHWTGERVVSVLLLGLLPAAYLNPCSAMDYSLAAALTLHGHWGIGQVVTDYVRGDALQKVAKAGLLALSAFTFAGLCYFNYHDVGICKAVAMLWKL
Sequence of UniProt Q007T0 (whole entry, looked up): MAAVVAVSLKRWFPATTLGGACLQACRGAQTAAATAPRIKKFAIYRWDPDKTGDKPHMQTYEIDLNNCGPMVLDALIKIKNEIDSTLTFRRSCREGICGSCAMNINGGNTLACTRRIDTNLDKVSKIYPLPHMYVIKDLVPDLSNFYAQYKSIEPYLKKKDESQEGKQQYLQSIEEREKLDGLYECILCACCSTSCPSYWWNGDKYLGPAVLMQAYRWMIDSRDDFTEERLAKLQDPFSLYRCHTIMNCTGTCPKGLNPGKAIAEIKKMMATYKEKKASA
Sequence of UniProt D0VWV4 (whole entry, looked up): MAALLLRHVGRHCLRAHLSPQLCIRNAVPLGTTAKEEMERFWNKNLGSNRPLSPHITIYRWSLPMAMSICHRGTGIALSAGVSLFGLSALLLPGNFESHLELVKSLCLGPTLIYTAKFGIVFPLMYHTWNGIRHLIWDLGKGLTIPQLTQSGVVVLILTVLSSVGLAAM
Sequence of UniProt P22303 (whole entry, looked up): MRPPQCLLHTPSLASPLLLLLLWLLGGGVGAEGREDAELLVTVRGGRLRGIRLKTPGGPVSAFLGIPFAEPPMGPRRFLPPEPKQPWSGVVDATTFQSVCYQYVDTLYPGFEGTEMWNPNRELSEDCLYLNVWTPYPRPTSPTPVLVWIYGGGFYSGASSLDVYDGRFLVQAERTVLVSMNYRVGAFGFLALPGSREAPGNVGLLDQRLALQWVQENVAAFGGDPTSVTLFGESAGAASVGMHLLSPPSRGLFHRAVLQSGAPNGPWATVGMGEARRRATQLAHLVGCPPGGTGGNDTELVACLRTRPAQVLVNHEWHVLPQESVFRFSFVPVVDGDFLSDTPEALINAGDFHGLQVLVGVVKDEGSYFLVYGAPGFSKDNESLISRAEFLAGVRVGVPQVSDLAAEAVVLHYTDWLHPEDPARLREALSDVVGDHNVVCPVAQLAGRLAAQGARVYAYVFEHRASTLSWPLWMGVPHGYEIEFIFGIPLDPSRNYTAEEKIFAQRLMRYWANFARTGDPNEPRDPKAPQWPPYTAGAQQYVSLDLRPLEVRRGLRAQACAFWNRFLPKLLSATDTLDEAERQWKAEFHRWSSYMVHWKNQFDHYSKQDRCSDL
Sequence of UniProt Q62351 (whole entry, looked up): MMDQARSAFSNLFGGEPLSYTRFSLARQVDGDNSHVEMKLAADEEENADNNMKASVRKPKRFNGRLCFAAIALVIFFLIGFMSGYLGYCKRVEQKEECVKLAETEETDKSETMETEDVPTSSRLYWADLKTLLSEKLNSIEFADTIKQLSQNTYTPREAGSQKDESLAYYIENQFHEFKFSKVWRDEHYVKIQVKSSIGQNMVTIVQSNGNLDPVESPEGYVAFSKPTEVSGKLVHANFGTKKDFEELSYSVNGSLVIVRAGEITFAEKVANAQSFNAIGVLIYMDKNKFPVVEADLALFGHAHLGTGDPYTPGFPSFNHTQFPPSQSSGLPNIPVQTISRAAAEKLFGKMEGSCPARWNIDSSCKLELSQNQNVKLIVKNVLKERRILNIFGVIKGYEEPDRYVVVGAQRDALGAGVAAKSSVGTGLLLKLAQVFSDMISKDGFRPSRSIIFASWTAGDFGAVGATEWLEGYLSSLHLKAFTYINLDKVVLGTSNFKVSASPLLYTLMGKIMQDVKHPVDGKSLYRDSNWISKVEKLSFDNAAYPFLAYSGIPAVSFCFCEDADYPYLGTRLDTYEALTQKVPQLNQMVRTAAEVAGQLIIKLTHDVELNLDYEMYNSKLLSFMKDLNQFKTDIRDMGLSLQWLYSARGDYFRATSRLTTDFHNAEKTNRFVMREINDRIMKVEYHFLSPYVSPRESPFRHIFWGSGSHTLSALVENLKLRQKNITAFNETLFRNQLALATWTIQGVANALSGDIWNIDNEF
Sequence of UniProt P51617 (whole entry, looked up): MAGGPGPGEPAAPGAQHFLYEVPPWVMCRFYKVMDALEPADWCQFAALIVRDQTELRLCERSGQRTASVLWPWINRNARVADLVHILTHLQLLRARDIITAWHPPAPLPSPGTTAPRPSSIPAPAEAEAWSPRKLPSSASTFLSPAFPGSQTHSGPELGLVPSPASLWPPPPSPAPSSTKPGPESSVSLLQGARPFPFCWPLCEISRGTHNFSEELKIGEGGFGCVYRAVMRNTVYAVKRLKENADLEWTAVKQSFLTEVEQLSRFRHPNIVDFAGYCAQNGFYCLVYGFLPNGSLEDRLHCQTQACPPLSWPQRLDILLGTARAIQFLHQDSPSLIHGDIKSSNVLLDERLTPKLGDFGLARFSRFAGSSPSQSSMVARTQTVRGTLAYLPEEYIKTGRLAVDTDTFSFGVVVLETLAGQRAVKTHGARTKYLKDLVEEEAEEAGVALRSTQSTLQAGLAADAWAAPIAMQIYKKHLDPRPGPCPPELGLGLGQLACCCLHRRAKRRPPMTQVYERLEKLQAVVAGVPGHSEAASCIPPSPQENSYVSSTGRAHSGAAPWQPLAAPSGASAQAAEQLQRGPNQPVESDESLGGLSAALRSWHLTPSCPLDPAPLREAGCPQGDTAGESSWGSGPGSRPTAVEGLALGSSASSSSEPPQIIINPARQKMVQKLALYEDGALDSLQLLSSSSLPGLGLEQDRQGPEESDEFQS
Sequence of UniProt Q9GZN0 (whole entry, looked up): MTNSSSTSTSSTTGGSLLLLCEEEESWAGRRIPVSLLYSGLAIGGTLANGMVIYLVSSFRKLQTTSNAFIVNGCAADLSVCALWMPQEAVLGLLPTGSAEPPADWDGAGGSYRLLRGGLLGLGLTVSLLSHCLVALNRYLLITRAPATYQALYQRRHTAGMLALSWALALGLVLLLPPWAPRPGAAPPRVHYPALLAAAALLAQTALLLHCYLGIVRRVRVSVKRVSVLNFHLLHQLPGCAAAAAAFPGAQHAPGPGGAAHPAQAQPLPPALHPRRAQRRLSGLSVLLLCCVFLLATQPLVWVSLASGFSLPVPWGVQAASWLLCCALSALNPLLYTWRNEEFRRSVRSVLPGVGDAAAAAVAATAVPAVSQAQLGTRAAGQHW
Sequence of UniProt Q704Y3 (whole entry, unmodified, looked up): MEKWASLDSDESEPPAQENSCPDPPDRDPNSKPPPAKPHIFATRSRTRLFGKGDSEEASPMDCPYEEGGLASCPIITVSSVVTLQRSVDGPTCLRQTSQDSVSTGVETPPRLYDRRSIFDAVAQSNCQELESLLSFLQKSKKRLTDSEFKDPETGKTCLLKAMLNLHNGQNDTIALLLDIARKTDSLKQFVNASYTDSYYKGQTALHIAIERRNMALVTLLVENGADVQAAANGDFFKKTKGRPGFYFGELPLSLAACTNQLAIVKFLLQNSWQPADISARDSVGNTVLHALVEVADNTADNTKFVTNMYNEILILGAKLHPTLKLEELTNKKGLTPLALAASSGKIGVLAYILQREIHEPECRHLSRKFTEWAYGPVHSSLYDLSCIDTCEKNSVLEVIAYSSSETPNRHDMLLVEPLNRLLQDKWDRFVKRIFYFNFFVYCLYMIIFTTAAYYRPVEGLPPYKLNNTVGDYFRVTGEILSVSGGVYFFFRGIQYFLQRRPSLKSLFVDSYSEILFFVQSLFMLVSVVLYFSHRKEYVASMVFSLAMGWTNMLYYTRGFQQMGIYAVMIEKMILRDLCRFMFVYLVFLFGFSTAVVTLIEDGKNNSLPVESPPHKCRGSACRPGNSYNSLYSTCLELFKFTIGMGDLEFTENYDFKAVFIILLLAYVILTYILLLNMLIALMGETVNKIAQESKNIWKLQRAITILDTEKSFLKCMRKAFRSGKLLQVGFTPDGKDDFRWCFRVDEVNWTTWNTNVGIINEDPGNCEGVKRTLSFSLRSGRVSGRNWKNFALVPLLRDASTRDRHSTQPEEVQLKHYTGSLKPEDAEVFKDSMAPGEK

SMILES | target | assay | test system | conditions | scale | measurement | result
O=c1c2ccccc2oc2cc(OCCCCc3ccccc3)ccc12 | Acetylcholinesterase (ache, Electrophorus electricus, UniProt O42275) | enzyme activity |  | 0.73 µM, added: substrate 6.90 mM | higher = faster reaction | reaction velocity | 0.0033 a.u.
CN(C(=O)n1cnc(-c2ccc[n+]([O-])c2)c1)C1CCCCC1 | KATP channel, hamster | binding |  | 10 µM, added: [3H]glyburide |  | inhibition | -3%
C[C@@H](NC(=O)c1ccc(C#Cc2cccc(F)c2)cn1)C(C)(C)O | Metabotropic glutamate receptor 5 (Grm5, Rattus norvegicus, UniProt P31424) | calcium mobilization, agonist | HEK293 cells, low receptor expression |  | relative to: glutamate maximum | maximum agonist efficacy | 65%
CC(=O)c1c(Cc2ccccc2Cl)c[nH]c1C | PFF0160c E182D | enzyme activity, DCIP colorimetric |  |  | relative to: E182D mutant over wild type | IC50 ratio | 0.2
O[C@@H]1CCCC[C@H]1N1CCC(c2ccccc2)CC1 (racemic) | Vesicular acetylcholine transporter (Rattus norvegicus, UniProt Q62666) |  |  |  | relative to: Ki σ1 (human) over Ki VAChT | selectivity ratio | 1.6
COc1c(O)c(I)c2c3c1-c1cc4c(cc1CC3N(C)CC2)OCO4 (centres unmarked) | Alpha-1A adrenergic receptor (ADRA1A, Homo sapiens, UniProt P35348) | calcium flux, antagonist, FLIPR | CHO-K1 | added: norepinephrine |  | apparent Kb | 60 ± 9 nM
Nc1ncnc2c1ncn2[C@@H]1O[C@H](COP(=O)(O)OP(=O)(O)OP(=O)(O)O)[C@@H](O)[C@H]1O | matB (Rhodopseudomonas palustris, UniProt Q6ND88, C106A/K488A/Q457C/R286C) | ATP binding |  | pH 7.5, 100 mM NaCl | relative to: bound over unbound | fluorescence ratio | 3.1
CC[C@@H](C)[C@@H](NC(=O)[C@@H](Cc1ccc(O)cc1)NC(=O)[C@H]1CCCN1C(=O)[C@@H](CCCNC(=N)N)NC(=O)[C@H](N)Cc1c[nH]cn1)C(=O)N[C@H](C)C(=O)N[C@H](Cc1c[nH]cn1)C(=O)N[C@H](CCCNC(=N)N)C(=O)N[C@H](CCCCNC(=O)c1cccc(S(=O)(=O)F)c1)C(=O)N[C@H](Cc1ccc(O)cc1)C(=O)N[C@H](CO)C(=O)N[C@H](Cc1ccccc1)C(N)=O | Transferrin receptor protein 1 (Tfrc, Mus musculus, UniProt Q62351) | flow cytometry | B16 | 24 h, unit not given | relative to: 0 h | surface expression | 0.341
CC(C)c1cccc(NC(=O)C2CC(=O)Nc3ccccc32)c1 (centres unmarked) | Procathepsin L (CTSL, Homo sapiens, UniProt P07711) | enzyme activity, inhibitor, FRET |  | 10-point dose response |  | Hill slope | 0.807
C=C(CN(C(=O)c1c(C(F)F)nn(C)c1F)C1CC1)c1ccc(Cl)cc1Cl | SDHD/SDHC/SDHB (Sus scrofa, UniProt A5GZW8+D0VWV4+Q007T0) | enzyme activity, inhibitor, DCIP reduction | pig | 0.1 µM, added: DCIP 160 µM |  | reaction velocity | 0.0267 µM/s and 0.027 µM/s
C[N+](C)(C)[C@@H](Cc1c[nH]c(=S)[nH]1)C(=O)[O-] | Ergothioneine transport permease/ergothioneine binding protein EgtU, substrate-binding domain (egtU, Helicobacter pylori, UniProt B5Z7I3) | ITC |  | 30 °C, substrate-binding domain |  | Ka | 496000 ± 307000 M⁻¹
Nc1ncnc2c1nc(Br)n2C1OC2COP(O)(=S)OC2C1O (single isomer, unassigned) | anti-cAMP antibody | antibody binding, competitive cAMP EIA |  | concentration not given, acetylated samples | relative to: EC50 cAMP over EC50 cpd, higher = stronger binding | relative binding affinity | 0.0027
c1ccc2c3c(ccc2c1)-c1cccc2cccc-3c12 | Aryl hydrocarbon receptor (Danio rerio, UniProt Q9YGV3) | reporter gene, agonist, luciferase reporter | ZF-4 | 13.72 µM | relative to: vehicle control | fold change | 1.76
COc1cc(N)c(Cl)cc1C(=O)NC1CN2CCC1CC2 (centres unmarked) | G protein-coupled receptor 88 (Homo sapiens, UniProt Q9GZN0) | β-arrestin recruitment, TANGO luminescence, item: GPR88 |  | concentration not given | relative to: basal luminescence | log2 fold change | -0.333
Nc1ncnc2c1ncn2[C@@H]1O[C@H](COP(=O)(O)OP(=O)(O)OP(=O)(O)O)[C@@H](O)[C@H]1O | dnaK (Escherichia coli, UniProt P0A6Y8, E213C/T22C) | conformational change, inducer, stopped-flow fluorescence quenching |  | linker insertion, slow phase |  | rate constant | 15.5 s⁻¹
O=c1[nH]cnc2c([C@@H]3N[C@H](CO)[C@@H](O)[C@H]3O)c[nH]c12 | uncharacterized protein (Trichomonas vaginalis, UniProt A2EYV3) | inhibitor |  |  |  | ligand efficiency | 0.39
Cc1nn(C)cc1-c1nc2c(N3CCN(Cc4ccc(Cl)cc4)CC3)c(Cl)cnc2[nH]1 | Atypical kinase COQ8B, mitochondrial (COQ8B, Homo sapiens, UniProt Q96D53) | KINOMEscan |  | 1 µM | relative to: DMSO control | remaining binding | 45%
Cc1noc(-c2cccs2)c1C(=O)NCCc1cccc(Cl)c1 | PFF0160c E182D | enzyme activity, DCIP colorimetric |  |  | relative to: E182D mutant over wild type | IC50 ratio | 6

SMILES | target | assay | test system | conditions | scale | measurement | result
COc1ccc2[nH]c3c(c2c1)CCN(C)CC3.Cl | Neuronal acetylcholine receptor; alpha9/alpha10 | ion current, inhibitor, two-electrode voltage clamp | Xenopus laevis oocytes | 3 µM, human receptor, added: acetylcholine 6 µM |  | recovery time constant | 9.6 s
CCCCC/C=C\C/C=C\C/C=C\C/C=C\CCCC(=O)NCCO | Transient receptor potential cation channel subfamily V member 1 (Trpv1, Mus musculus, UniProt Q704Y3, Y512F) | ion current, agonist, whole-cell patch clamp |  | Y512F | relative to: 3 mM 2-APB | maximal open probability | 0.73 ± 0.17
C[C@H]1CN(c2n[nH]c3nc(N[C@H]4CC[C@H](NS(=O)(=O)CCC(F)(F)F)CC4)ncc23)CCO1 | Interleukin-1 receptor-associated kinase 1 (IRAK1, Homo sapiens, UniProt P51617) | inhibitor, Kinobeads competition profiling |  | 20 µM | relative to: vehicle | relative abundance | 1.15
CCC[N+]1(C)CCN(c2ccccc2)CC1.[I-] | Neuronal acetylcholine receptor; alpha9/alpha10 | current, agonist, two-electrode voltage clamp | Xenopus oocytes coexpressing rapsyn | α9 coexpressed with α10 | relative to: ACh | Imax relative to ACh | 0.61 ± 0.01
COc1ccc(N2C(=O)N(c3c(C)cccc3Cl)Cc3cnc(Nc4ccc(C5CCN(C)CC5)cc4OC)nc32)nc1 | Serine/threonine-protein kinase haspin (HASPIN, Homo sapiens, UniProt Q8TF76) | kinase activity |  | 0.5 µM |  | inhibition | 13%
O=C(Nc1cnccc1Cl)N1CCN(Cc2ccc3c(c2)OC(F)(F)O3)CC1 | Alpha-2B adrenergic receptor (ADRA2B, Homo sapiens, UniProt P18089) | binding |  | 10 µM, added: [3H]rauwolscine |  | inhibition | 13%
COc1cc(-c2[o+]c3cc(O)cc(O)c3cc2O[C@@H]2O[C@H](CO)[C@@H](O)[C@H](O)[C@H]2O)cc(OC)c1O | Albumin (ALB, Bos taurus, UniProt P02769) | fluorescence quenching |  | concentration not given |  | binding entropy | 0.11 kJ/(mol·K)
Cn1cc(-c2ccc(-n3ccc(OCc4ccc(Cl)cn4)cc3=O)cn2)cn1 | PFF0160c E182D | enzyme activity, DCIP colorimetric |  |  | relative to: E182D mutant over wild type | IC50 ratio | 0.5
Clc1cc2c(cc1Cl)Oc1cc(Cl)c(Cl)cc1O2 | Uncharacterized protein (Takifugu rubripes, UniProt Q4JHL2) | reporter gene, agonist, dual-luciferase | COS-7 | 24 h |  | EC20 | 0.11 ± 0.05 nM
CN(C(=O)n1cnc(-c2ccc[n+]([O-])c2)c1)C1CCCCC1 | Lysosomal thioesterase PPT2 (Ppt2, Rattus norvegicus, UniProt O70489) | enzyme activity, ABPP | rat, brain | oral, 30 mg/kg/day, 28 days | relative to: vehicle | fold change | -16.1
[2H]c1c([2H])c([C@]2([2H])CCCN2C(=O)C(C)(C)Oc2ccc3cn[nH]c3c2)c([2H])c([2H])c1C([2H])([2H])[2H] | Serine/threonine-protein kinase PLK2 (PLK2, Homo sapiens, UniProt Q9NYY3) | KINOMEscan |  | 1 µM | relative to: DMSO control | remaining binding | 95%
CCN(CC)CCNc1ccc(CO)c2sc3ccccc3c(=O)c12 | ACHE |  | biochemical | concentration not given |  | activity class | inactive
CN1CCN(c2cc(-c3ccncc3)c(-c3ccc4ccccc4c3)nn2)CC1 | MRGPRD (Homo sapiens, UniProt Q8TDS7) | antagonist, FLIPR |  | 10 µM |  | inhibition | 49.2%
O=C(c1ccc(Cl)cc1)N1CCN2C(=O)N(OC(=O)N3CCOc4ccccc43)C(=O)C2C1 (centres unmarked) | Hormone-sensitive lipase (LIPE, Homo sapiens, UniProt Q05469) | enzyme activity, inhibitor, MS-based ABPP | SW-620 in situ | 10 µM, 2 h, 37 °C | relative to: compound over DMSO, lower = stronger inhibition | median ratio | 1.11
Oc1ccc(Cl)cc1Cc1cc(Cl)ccc1O | ACHE |  | biochemical | concentration not given |  | activity class | inactive
COc1ccc(-n2ccnc2SCC(=O)Nc2cc(C(F)(F)F)ccc2Cl)c(OC)c1 | PFF0160c E182D | enzyme activity, DCIP colorimetric |  |  | relative to: E182D mutant over wild type | IC50 ratio | 2.4
COc1cc(Nc2ncc(F)c(Nc3ccc4c(n3)NC(=O)C(C)(C)O4)n2)cc(OC)c1OC | Tyrosine-protein kinase Lyn (LYN, Homo sapiens, UniProt P07948) | KINOMEscan |  | 10 µM |  | inhibition | 98%

Excerpt of the above:
SMILES | target | assay | test system | conditions | scale | measurement | result
COc1ccc2[nH]c3c(c2c1)CCN(C)CC3.Cl | Neuronal acetylcholine receptor; alpha9/alpha10 | ion current, inhibitor, two-electrode voltage clamp | Xenopus laevis oocytes | 3 µM, human receptor, added: acetylcholine 6 µM |  | recovery time constant | 9.6 s
Nc1ncnc2c1ncn2[C@@H]1O[C@H](COP(=O)(O)OP(=O)(O)OP(=O)(O)O)[C@@H](O)[C@H]1O | matB (Rhodopseudomonas palustris, UniProt Q6ND88, C106A/K488A/Q457C/R286C) | ATP binding |  | pH 7.5, 100 mM NaCl | relative to: bound over unbound | fluorescence ratio | 3.1
O=c1c2ccccc2oc2cc(OCCCCc3ccccc3)ccc12 | Acetylcholinesterase (ache, Electrophorus electricus, UniProt O42275) | enzyme activity |  | 0.73 µM, added: substrate 6.90 mM | higher = faster reaction | reaction velocity | 0.0033 a.u.
CN(C(=O)n1cnc(-c2ccc[n+]([O-])c2)c1)C1CCCCC1 | KATP channel, hamster | binding |  | 10 µM, added: [3H]glyburide |  | inhibition | -3%
CN1CCN(c2cc(-c3ccncc3)c(-c3ccc4ccccc4c3)nn2)CC1 | MRGPRD (Homo sapiens, UniProt Q8TDS7) | antagonist, FLIPR |  | 10 µM |  | inhibition | 49.2%
